Measured values gathered from unrelated publications.
Each numbered part is a random draw from the data of one study; scales do not carry over between parts. Positions count from the first letter of the parent shown.

Study 1
Target: Interferon regulatory factor 7, full length, phosphomimetic (IRF7, Homo sapiens, UniProt Q92985, residues 1-503, S471D/S472D/S475D/S476D/S477D/S483D/S484D/S487D)
Method: protein-binding microarray
Form: double-stranded DNA, one strand shown
Matrix: in vitro
Tested at: 2200 nM top
Setting: 60-bp whole probe
With: salmon DNA 0.4 mg/ml
Baseline: random background probes
Reading: higher = stronger binding
Endpoint: fitted relative affinity
Constant ends, left off below: GCCTAGCAC … GTCTTGATTCGCTTGACGCTGCTG
Target sequence (chain): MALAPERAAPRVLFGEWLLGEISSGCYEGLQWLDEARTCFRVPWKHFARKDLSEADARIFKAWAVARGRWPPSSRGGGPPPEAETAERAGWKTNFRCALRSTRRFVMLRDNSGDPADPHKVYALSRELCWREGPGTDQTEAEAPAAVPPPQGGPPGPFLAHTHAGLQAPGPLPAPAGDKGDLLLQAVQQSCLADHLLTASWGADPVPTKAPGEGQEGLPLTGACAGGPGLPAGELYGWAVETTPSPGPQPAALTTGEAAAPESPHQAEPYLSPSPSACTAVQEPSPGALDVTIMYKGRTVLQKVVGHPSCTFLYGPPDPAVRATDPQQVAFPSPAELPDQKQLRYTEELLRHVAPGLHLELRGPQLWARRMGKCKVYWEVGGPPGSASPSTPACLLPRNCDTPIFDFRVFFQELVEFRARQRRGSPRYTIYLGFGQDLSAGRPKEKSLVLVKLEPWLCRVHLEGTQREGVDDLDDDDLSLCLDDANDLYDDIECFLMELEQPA
Oligonucleotide = TTATATCTCAGACTGGATTAGTGCTAG; result = 0.626 z-score
Oligonucleotide = GACGAACTGGGATATCGAGACGTGCTA; result = -0.21 z-score
Oligonucleotide = GACGGTTTCGACTATCGGGCCGTGCTA; result = 3.32 z-score
Oligonucleotide = TTCAGTCCCCTCTTCTGGATGTGCTAG; result = 1.18 z-score
Oligonucleotide = GACGATTTCGGGACGGGAGACGTGCTA; result = 1.7 z-score
Oligonucleotide = ATGCATGTAAATAATCAGACAGTGCTA; result = -0.409 z-score
Oligonucleotide = CTTGTGCTCCTTTTAATTTTGTGCTAG; result = 0.834 z-score
Oligonucleotide = TCAAATCTCTTTCCTTAACTGTGCTAG; result = 1.2 z-score
Oligonucleotide = GACGATATCGGGAGTGGAGACGTGCTA; result = -0.172 z-score
Oligonucleotide = GACGGTATCGTTATCGGGACGTGCTAG; result = 0.247 z-score
Oligonucleotide = TTAGCACTGGGTTTCGGTTAGTGCTAG; result = 4.06 z-score
Oligonucleotide = GACGAACTGAGAATGGAGACGTGCTAG; result = -0.0866 z-score
Oligonucleotide = GCCACCGGTCTCCATGGGTCGTGCTAG; result = -0.0931 z-score
Oligonucleotide = GACGGCATCGGGACTGGGGACGTGCTA; result = -0.874 z-score
Oligonucleotide = ATGTTTTTCATTTTTTTTCAGTGCTAG; result = 2.6 z-score
Oligonucleotide = TTTTATATCTTATCCTATCAGTGCTAG; result = 1.44 z-score
Oligonucleotide = TTGAACTTCGGCCTCTAGGTGTGCTAG; result = 0.0619 z-score
Oligonucleotide = TTAGAACCGAGTCTCGATTAGTGCTAG; result = 0.317 z-score
Oligonucleotide = GACGAACTGTGTTTCGAGACGTGCTAG; result = 1.2 z-score

Study 2
Target: CCNF, cyclin fold, Cln2 fusion (human)
Method: yeast growth competition, sequencing
Matrix: yeast
Setting: strong parent motif
Baseline: not given
Reading: higher = stronger binding
Endpoint: normalised enrichment score
Parent: E2F1 docking peptide (human); PPVKRRLDFETDH
Change = F9G; result = 0.133
Change = P2V; result = 7.88
Change = R5H; result = 1.41
Change = V3M; result = 6.08
Change = E10F; result = 8.45
Change = D12A; result = 8.06
Change = V3K; result = 1.94
Change = T11N; result = 7.4
Change = R6W; result = 6.83
Change = D8I; result = 6.09
Change = P2C; result = 8.13
Change = K4A; result = 6.38
Change = T11A; result = 7
Change = E10H; result = 8.04
Change = K4R; result = 7.47
Change = K4Y; result = 6.53
Change = T11G; result = 7.44
Change = D8C; result = 7.81
Change = F9R; result = 0.925
Change = D8E; result = 7.25
Change = D8H; result = 7.86
Change = E10T; result = 7.58
Change = E10R; result = 8.25
Change = D8G; result = 7.78
Change = R5I; result = 2.3

Study 3
Target: ABI1, truncated, D143A, DHFR fusion (Arabidopsis thaliana)
Method: DHFR PCA, deep sequencing
Matrix: yeast
Setting: methotrexate growth selection, single substitutions
With: (+)-ABA 200 µM
Baseline: wild-type fitted maximum
Reading: higher = stronger binding
Endpoint: relative binding score
Parent: PYL1, truncated, DHFR fusion (Arabidopsis thaliana); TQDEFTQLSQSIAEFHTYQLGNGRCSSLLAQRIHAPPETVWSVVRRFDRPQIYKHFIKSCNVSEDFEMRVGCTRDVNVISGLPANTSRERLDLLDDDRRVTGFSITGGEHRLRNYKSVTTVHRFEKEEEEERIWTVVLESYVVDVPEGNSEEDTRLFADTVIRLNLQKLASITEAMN; partner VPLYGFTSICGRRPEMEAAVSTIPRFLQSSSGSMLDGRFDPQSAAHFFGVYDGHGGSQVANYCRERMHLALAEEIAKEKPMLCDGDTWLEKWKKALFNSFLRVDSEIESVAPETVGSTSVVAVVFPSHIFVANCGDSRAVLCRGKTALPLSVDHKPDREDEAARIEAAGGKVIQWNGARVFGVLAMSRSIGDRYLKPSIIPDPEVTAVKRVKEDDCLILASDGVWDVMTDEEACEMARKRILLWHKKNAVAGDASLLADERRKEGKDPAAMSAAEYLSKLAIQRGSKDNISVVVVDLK
Change = L29M; result = 87.1%
Change = L94R; result = 35.7%
Change = Y53K; result = 2.28%
Change = L166E; result = 5.02%
Change = T1E; result = 93.9%
Change = M176T; result = 98.8%
Change = T154P; result = 11.3%
Change = C60D; result = -1.12%
Change = R98P; result = 1.39%
Change = L138Y; result = 68.9%
Change = T1C; result = 96.1%
Change = L93E; result = 89.4%
Change = L8K; result = 74.6%
Change = W41S; result = -19.2%
Change = G148D; result = 86.4%

Study 4
Target: Centromere-binding protein 1, full length, N-terminal tag (CBF1, Saccharomyces cerevisiae, UniProt P17106, residues 1-351)
UniProt P17106, sequence (whole entry, looked up): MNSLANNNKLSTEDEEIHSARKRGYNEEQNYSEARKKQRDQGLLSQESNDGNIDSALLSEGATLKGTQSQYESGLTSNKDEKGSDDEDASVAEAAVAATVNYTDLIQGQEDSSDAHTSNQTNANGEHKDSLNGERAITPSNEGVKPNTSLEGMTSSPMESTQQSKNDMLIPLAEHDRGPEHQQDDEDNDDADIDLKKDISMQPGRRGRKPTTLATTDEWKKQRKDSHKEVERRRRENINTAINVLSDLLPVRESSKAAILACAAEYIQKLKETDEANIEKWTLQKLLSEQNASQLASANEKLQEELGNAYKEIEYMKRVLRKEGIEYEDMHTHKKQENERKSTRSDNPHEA
Method: protein-binding microarray
Form: double-stranded DNA, one strand shown
Matrix: in vitro
Tested at: 0.8 µM
Setting: whole 60-bp probe, no competitor
Reading: higher = stronger binding
Endpoint: fluorescence intensity
Constant ends, left off below: … GTCTTGATTCGCTTGACGCTGCTG
Oligonucleotide = GAAAAAAGACCTAGAAAGGTGACAGATAGGAAATAG; result = 534 a.u.
Oligonucleotide = CTAAAATGGCGTGGAAATGTGATCAAAGGTAATTTC; result = 596 a.u.
Oligonucleotide = GAAATCCTGCGCGATCACGTAACATGCTATGAATAG; result = 685 a.u.
Oligonucleotide = CTATCCCGCAGTCCTGGCGTGATAAGCCACTGCTTC; result = 544 a.u.
Oligonucleotide = CTATTTTATCACCGTCTCACCATATCCCACGACTTC; result = 544 a.u.
Oligonucleotide = CTACATTAAGGTTGTTATCTCGTGGACCACAACTTC; result = 649 a.u.
Oligonucleotide = CTAAGAGTCCGAGCATGTCTGATGAGGTCCTCTTTC; result = 499 a.u.
Oligonucleotide = GAAATATACTGCTATCACATGCTAAAACAAGAGTAG; result = 2030 a.u.
Oligonucleotide = GAACGTCGTGATGTTCACGCGCTTTGCCCACATTAG; result = 589 a.u.
Oligonucleotide = CTATAAATAAGCCTCGTCGTGATGAACTTAAATTTC; result = 541 a.u.
Oligonucleotide = GAAGCCATTGCTTACCGCGTGCAAGATCCGTAATAG; result = 592 a.u.
Oligonucleotide = CTAGTCATTCTTTAACACGTATACTTTTGTAACTTC; result = 564 a.u.
Oligonucleotide = CTATTAAAGACAGGCAGCAGGTGAAGATAATACTTC; result = 534 a.u.
Oligonucleotide = TGTACGAAGCTATTGCACGTAGGTATAGTAGTTAGG; result = 528 a.u.
Oligonucleotide = CTAGGTAACATTCAAAACGTGAACATCTTTGTTTTC; result = 605 a.u.
Oligonucleotide = CTATAAAGGGACCAAAACGTGGGGAAGGGATGCTTC; result = 510 a.u.
Oligonucleotide = CCTAACTACTATATGCACGTGGGATAGCTTCGTACA; result = 3650 a.u.
Oligonucleotide = CTAACCACGTTTCGTCACCGGTCATAATTGGAATTC; result = 569 a.u.
Oligonucleotide = CCTAACTACTATAATCAGATTTTATAGCTTCGTACA; result = 536 a.u.

Repeated from above (study 1):
Oligonucleotide = CTTGTGCTCCTTTTAATTTTGTGCTAG; result = 0.834 z-score
Oligonucleotide = TCAAATCTCTTTCCTTAACTGTGCTAG; result = 1.2 z-score
Oligonucleotide = GACGATATCGGGAGTGGAGACGTGCTA; result = -0.172 z-score
Oligonucleotide = GACGGTATCGTTATCGGGACGTGCTAG; result = 0.247 z-score
Oligonucleotide = TTAGCACTGGGTTTCGGTTAGTGCTAG; result = 4.06 z-score
Oligonucleotide = GACGAACTGAGAATGGAGACGTGCTAG; result = -0.0866 z-score
